Published values of several laboratories.
Lines come from different studies, so protocols differ.
DYRK2: Dual specificity tyrosine-phosphorylation-regulated kinase 2 (DYRK2, Homo sapiens, UniProt Q92630)
UniProt Q92630, sequence (whole entry, looked up): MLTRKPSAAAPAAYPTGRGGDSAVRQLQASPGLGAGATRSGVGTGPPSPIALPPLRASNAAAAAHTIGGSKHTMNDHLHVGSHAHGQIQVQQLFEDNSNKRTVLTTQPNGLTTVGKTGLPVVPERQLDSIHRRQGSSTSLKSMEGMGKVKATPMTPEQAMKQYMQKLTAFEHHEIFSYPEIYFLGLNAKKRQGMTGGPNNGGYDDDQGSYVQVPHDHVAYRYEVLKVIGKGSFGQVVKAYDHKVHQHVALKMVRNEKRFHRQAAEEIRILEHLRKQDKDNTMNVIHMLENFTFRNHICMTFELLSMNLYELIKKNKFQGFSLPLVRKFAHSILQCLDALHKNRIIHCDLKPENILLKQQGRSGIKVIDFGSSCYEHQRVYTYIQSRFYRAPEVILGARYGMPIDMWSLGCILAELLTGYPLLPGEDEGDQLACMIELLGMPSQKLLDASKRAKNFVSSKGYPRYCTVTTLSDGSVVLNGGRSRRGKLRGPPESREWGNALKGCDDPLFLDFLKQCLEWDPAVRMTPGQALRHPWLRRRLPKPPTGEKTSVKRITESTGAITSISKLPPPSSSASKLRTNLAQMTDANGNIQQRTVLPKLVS
UniProt P57058, sequence (whole entry, looked up): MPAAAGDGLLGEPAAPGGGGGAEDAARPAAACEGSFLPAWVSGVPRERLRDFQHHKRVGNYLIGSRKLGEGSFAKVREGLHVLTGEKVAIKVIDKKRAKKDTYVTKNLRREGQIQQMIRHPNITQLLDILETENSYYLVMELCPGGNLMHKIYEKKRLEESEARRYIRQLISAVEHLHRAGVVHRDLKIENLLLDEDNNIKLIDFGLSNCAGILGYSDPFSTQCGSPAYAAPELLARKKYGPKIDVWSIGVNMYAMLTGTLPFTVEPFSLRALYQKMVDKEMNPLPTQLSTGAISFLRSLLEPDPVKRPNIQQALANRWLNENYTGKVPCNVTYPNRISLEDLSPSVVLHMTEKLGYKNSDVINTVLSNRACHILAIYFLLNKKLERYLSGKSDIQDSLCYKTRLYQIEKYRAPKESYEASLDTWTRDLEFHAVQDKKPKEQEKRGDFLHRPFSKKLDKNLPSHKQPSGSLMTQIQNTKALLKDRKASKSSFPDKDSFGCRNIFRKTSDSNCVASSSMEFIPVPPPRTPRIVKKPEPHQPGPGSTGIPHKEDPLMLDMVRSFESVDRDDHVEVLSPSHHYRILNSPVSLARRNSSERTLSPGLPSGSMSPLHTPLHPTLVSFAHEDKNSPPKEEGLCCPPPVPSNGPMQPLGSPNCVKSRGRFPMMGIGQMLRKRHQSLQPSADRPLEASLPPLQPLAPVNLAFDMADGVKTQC
UniProt Q9H2G2, sequence (whole entry, looked up): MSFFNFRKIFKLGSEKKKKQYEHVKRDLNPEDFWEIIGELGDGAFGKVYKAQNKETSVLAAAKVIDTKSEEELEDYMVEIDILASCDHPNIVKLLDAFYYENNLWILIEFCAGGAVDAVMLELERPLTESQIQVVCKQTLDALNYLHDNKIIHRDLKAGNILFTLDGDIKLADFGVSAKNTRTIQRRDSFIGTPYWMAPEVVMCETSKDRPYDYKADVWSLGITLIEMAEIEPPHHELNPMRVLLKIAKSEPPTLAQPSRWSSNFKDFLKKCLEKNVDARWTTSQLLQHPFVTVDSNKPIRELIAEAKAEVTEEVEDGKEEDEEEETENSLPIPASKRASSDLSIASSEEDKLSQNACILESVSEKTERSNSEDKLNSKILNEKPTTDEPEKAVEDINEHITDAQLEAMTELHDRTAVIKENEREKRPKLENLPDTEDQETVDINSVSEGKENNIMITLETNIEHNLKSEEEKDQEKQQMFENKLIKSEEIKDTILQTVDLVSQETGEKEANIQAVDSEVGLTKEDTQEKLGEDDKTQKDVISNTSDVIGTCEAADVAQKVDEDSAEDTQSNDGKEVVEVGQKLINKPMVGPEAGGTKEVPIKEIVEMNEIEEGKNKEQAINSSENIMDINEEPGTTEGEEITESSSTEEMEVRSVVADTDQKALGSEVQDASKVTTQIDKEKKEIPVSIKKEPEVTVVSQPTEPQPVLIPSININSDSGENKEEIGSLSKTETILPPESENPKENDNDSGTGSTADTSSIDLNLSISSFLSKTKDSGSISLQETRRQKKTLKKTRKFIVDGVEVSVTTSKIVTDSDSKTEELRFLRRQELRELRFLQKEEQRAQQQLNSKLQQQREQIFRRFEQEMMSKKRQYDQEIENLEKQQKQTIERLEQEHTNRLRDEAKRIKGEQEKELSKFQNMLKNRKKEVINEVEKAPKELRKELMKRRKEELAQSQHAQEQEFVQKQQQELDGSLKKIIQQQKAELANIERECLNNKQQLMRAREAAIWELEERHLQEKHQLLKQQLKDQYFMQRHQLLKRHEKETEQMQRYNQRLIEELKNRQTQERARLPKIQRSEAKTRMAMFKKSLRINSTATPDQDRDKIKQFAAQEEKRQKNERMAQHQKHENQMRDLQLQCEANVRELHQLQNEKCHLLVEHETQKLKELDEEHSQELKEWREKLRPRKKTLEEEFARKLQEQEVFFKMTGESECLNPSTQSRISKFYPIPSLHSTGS
UniProt Q15303, sequence (whole entry, looked up): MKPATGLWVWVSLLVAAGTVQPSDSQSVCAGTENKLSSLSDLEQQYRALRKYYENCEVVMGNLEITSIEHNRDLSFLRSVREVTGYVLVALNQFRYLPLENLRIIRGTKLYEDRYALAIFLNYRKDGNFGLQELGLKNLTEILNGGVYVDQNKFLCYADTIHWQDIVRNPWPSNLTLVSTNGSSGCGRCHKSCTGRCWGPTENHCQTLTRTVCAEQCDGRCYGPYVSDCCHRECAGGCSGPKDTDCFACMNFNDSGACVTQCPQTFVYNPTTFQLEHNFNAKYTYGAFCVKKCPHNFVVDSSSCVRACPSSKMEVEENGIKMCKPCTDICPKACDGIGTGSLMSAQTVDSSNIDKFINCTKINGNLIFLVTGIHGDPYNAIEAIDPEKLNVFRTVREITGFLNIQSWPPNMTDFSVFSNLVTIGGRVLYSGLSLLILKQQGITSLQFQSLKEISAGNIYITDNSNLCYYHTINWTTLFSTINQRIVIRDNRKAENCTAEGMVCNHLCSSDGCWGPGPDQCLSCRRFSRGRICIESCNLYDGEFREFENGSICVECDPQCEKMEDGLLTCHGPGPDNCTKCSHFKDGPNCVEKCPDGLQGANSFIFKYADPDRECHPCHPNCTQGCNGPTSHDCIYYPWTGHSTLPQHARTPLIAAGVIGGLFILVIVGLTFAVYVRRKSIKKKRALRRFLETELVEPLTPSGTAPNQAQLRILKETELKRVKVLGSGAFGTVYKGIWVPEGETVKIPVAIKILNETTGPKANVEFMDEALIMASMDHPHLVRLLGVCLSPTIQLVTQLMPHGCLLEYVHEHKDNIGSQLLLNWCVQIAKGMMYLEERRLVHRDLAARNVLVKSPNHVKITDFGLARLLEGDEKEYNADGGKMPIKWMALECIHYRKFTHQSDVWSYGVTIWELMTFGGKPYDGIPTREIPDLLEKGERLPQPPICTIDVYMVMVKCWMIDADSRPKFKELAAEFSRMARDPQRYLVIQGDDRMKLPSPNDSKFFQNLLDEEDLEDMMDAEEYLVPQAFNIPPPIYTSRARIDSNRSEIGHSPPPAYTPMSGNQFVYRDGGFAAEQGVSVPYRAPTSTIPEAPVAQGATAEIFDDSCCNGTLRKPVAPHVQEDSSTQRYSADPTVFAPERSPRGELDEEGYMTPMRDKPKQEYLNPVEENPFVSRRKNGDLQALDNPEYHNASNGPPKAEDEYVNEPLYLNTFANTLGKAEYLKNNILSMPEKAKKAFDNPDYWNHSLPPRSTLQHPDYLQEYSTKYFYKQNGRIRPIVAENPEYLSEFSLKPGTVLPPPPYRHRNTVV

CNc1ncc2c(/C=C/C(=O)N3CCC(OC)CC3)nn(Cc3cccc(C(F)(F)F)c3)c2n1 — remaining activity (STE20-like serine/threonine-protein kinase (SLK, Homo sapiens, UniProt Q9H2G2); enzyme activity, inhibitor, radiometric; 1 µM): 86%
C[C@@H]1CC[C@@H]([C@@](O)(CNCc2cccc3ccccc23)COCc2ccccc2)[C@H](OCc2ccccc2)C1 — inhibition (HeLa; cell growth or viability, MTT; 10 µM, 72 h): 81.4%
CCC(=CCc1c(O)cc2c(c1O)C(=O)C[C@@H](c1ccccc1O)O2)CC — inhibition (HeLa; cell growth or viability, MTT; 60 µM, 48 h): 47.7%
COc1cc(-c2cncc3c2CN(C)Cc2cc(N4CCNCC4)ccc2-3)cc(OC)c1OC — remaining activity (DYRK2; enzyme activity, inhibitor; 1 µM): 96%
Cc1cc(=O)oc2ccc(-c3cc(-c4ccc(Br)cc4)nc(N)n3)c(O)c12 — inhibition (KB; cell growth or viability, MTT; 32 µg/mL, 72 h): 13%
CCN(Cc1ccncc1)c1ccc(CO)c(Cl)c1 — inhibition (RBE; cell growth or viability, ATP luminescence; 46 µM, 72 h): 83%
Cc1cc([C@@H](C)Nc2ccccc2C(=O)O)c2nc(N3CCC(F)(F)CC3)c(C#N)c(=O)n2c1 — remaining binding (Receptor tyrosine-protein kinase erbB-4 (ERBB4, Homo sapiens, UniProt Q15303); binding, competition with immobilised ligand; 10 µM): 100%
CCN(Cc1cccc(F)c1)c1ccc(CO)c(Cl)c1 — inhibition (RBE; cell growth or viability, ATP luminescence; 46 µM, 72 h): 54%
C=CC(=O)N1CCC(COCC(=O)N2CCN(c3nc(-c4cnc(N)nc4C(F)F)nc(N4CCOC[C@@H]4C)n3)CC2)CC1 — remaining binding (DYRK2; binding, competition with immobilised ligand; 1 µM): 99%
ONCc1ccc(-c2nn(Cc3ccccc3)c3ccccc23)o1 — inhibition (RBE; cell growth or viability, ATP luminescence; 46 µM, 72 h): 52%
CCCCC(=O)Nc1ccc(-c2ccc3ncn(CCC)c(=O)c3c2)cn1 — remaining binding (Hormonally up-regulated neu tumor-associated kinase (HUNK, Homo sapiens, UniProt P57058); binding, competition with immobilised ligand; 0.5 µM): 100%
CCC(=CCc1c(O)cc2c(c1O)C(=O)C[C@@H](c1ccc(O)cc1)O2)CC — inhibition (HeLa; cell growth or viability, MTT; 3.125 µM, 48 h): -2.7%
Cc1nc(Nc2ncc(C(=O)Nc3c(C)cccc3Cl)s2)cc(N2CC[C@H](O)C2)n1 — inhibition (MOLT-4; cell growth or viability, ATP luminescence; 10 µM, 72 h): 37%
COc1ccccc1Cn1nc(-c2ccc(CO)o2)c2ccccc21 — inhibition (RBE; cell growth or viability, ATP luminescence; 46 µM, 72 h): 74%
C[C@@H]1CC[C@@H]([C@](C)(O)CNCc2ccccc2)[C@H](OCc2ccccc2)C1 — inhibition (HeLa; cell growth or viability, MTT; 10 µM, 72 h): 97.7%
Cc1ccc(-c2cc(-c3ccc4oc(=O)cc(C)c4c3O)nc(N)n2)cc1 — inhibition (KB; cell growth or viability, MTT; 32 µg/mL, 72 h): 0%
C[C@@H]1CC[C@@H]([C@@](O)(CNCc2ccccc2)COCc2ccccc2)[C@H](OCc2ccccc2)C1 — inhibition (HeLa; cell growth or viability, MTT; 10 µM, 72 h): 97.4%
O=C(Nc1ccc(Oc2nnc(-c3ccc(Cl)cc3)c3ccccc23)cc1)c1ccccc1 — viability (MCF7; cell growth or viability, MTT; 78 nM, 24 h): 86.5%
C[C@@H]1CC[C@@H]([C@](O)(CNCc2ccc(F)cc2)COCc2ccc(F)cc2)[C@H](OCc2ccc(F)cc2)C1 — inhibition (HeLa; cell growth or viability, MTT; 10 µM, 72 h): 93.7%
Cc1cccc(N(O)N=Nc2ccc(S(=O)(=O)Nc3nccs3)cc2)c1 — inhibition (ABTS scavenging; 240 µg/mL): 99.8%
COc1ccc(COC[C@@](O)(CNCc2ccc(F)cc2)[C@@H]2CC[C@@H](C)C[C@H]2OCc2ccc(OC)cc2)cc1 — inhibition (A2780; cell growth or viability, MTT; 10 µM, 72 h): 94.1%
CCN(Cc1cccc(F)c1F)c1ccc(CO)c(Cl)c1 — inhibition (RBE; cell growth or viability, ATP luminescence; 46 µM, 72 h): 56%

Repeated from above:
COc1cc(-c2cncc3c2CN(C)Cc2cc(N4CCNCC4)ccc2-3)cc(OC)c1OC — remaining activity (DYRK2; enzyme activity, inhibitor; 1 µM): 96%
Cc1ccc(-c2cc(-c3ccc4oc(=O)cc(C)c4c3O)nc(N)n2)cc1 — inhibition (KB; cell growth or viability, MTT; 32 µg/mL, 72 h): 0%
